Measured values pooled from the literature.
Parts stem from different laboratories: compare values within a part only.

Block 1 — method: RNA Bind-n-Seq; molecule type: RNA; medium: in vitro; tested at: 365 nM; relative to: no-protein control; direction: higher = stronger binding
Target: RNA binding protein fox-1 homolog 2, RRM domain, GST-SBP tag (RBFOX2, Homo sapiens, UniProt O43251-10, residues 100-194)
Setting: natural RNA segment, single round, ends assumed
Residues (chain): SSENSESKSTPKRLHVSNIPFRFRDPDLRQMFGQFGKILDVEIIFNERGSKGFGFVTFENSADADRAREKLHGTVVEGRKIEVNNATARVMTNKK
| Strand | RBNS enrichment (R) |
| --- | --- |
| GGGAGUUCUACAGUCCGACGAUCGGCAAUAUUUUAUCAUAUGUUCUAAAAGAGAAGGAAGAGAAAAUACUACUUUCUCAAAAUGGAAGCCCUUAAAGGUGCUUUGAUACUGAAGGACACAAAUGUGACCGUCCUGGAAUUCUCGGGUGCCAA | 0.346 |
| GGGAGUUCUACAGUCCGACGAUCUAAGUGUCCAGGCUCAGAGCUGGUGAAAACCCUUCUGUUGGGCGUGUGCAGGGUUAAACUCCUGAAGUAACUUGUGAGGACUUCAGUGCUUGCUGGUGUCCUGGGCAGCAUGGAAUUCUCGGGUGCCAA | 10.2 |
| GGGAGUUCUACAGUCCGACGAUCAUGUAUCGCUGCUGUCCAGCAUGCUUUUCUUCUUUUUAUCCAAACAUGAGGCCAGGAGGAUAAUUAACUUGAGGAAUAGACAACUUACAUUCACUACAUAUUUAAUCAUGUGGAAUUCUCGGGUGCCAA | 8.67 |
| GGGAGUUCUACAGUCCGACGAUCUGUUAACCAAAGGAGGCAUUGAUUUCAGUUUUAAGGCUACUCAGUGUUGUGUGUCCAGGGAAAUUCACAGCUCAGUAUGAGAAUACCUUGGUUAGUGCUCACCCACAAGCUGGAAUUCUCGGGUGCCAA | 0.393 |
| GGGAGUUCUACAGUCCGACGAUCUCAGGUCUCAGCUAUAAUUCUGUUAUAUGAGGGGCAGUGGACAGUUCCCUAUGCCAACUCACGACUCCUACAGGUACUAGUCACUCAUCUACCAGAUUCUGCCUAUGUAAUGGAAUUCUCGGGUGCCAA | 0.363 |
| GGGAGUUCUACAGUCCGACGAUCUAAUCGGUGUAAAUCGCUGUUUGGAUUUCCUGAUUUUAUAAUAGGGUGGCUGGUUAAUAUCUCACACAGUUUGAAAAAUCAGCCCCUGGUUUCUCCAUGUUUACACUUCAUGGAAUUCUCGGGUGCCAA | 0.276 |

Block 2 — method: protein-binding microarray; molecule type: double-stranded DNA, one strand shown; medium: in vitro; tested at: 2200 nM top; setting: 60-bp whole probe; added: salmon DNA 0.4 mg/ml; relative to: random background probes; direction: higher = stronger binding; constant ends, left off below: GCCTAGCAC … GTCTTGATTCGCTTGACGCTGCTG
Target: Interferon regulatory factor 7, full length, phosphomimetic (IRF7, Homo sapiens, UniProt Q92985, residues 1-503, S471D/S472D/S475D/S476D/S477D/S483D/S484D/S487D)
Residues (chain): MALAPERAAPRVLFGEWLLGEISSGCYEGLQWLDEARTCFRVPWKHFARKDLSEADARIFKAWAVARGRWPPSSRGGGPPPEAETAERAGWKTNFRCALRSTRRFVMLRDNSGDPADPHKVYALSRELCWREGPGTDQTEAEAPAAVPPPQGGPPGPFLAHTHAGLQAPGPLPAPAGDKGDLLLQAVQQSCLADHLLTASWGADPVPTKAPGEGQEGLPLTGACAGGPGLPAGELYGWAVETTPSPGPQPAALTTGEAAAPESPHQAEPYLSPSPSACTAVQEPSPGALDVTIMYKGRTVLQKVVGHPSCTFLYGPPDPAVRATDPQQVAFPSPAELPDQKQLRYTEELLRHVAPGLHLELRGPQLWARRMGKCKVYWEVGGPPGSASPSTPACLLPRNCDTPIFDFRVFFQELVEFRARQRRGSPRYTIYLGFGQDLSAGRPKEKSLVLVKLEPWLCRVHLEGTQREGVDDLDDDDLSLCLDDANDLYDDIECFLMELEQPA
| Strand | fitted relative affinity [z-score] |
| --- | --- |
| CTTTCACCTCTCGGCCTGATGTGCTAG | 2.39 |
| GACGAACTTGGGTATCGAGACGTGCTA | -0.253 |
| AGACACCCCTTTGGTGCCACGTGCTAG | 0.684 |
| TTAGGCATCGGGTTTCGGTTAGTGCTA | 3.24 |
| TTAGGTATCGGGTTGCGGTTAGTGCTA | 1.45 |
| TTAGATTTCAGTTCCGAGTAGTGCTAG | 1.65 |

Block 3 — method: competition protein-binding microarray; molecule type: double-stranded DNA, one strand shown; medium: in vitro; tested at: 2 µM; added: Pho4 competitor, 0.05 µM; direction: higher = stronger binding
Target: Centromere-binding protein 1, full length, His-tagged (CBF1, Saccharomyces cerevisiae, UniProt P17106, residues 1-351)
Chain of UniProt P17106 (whole entry, looked up): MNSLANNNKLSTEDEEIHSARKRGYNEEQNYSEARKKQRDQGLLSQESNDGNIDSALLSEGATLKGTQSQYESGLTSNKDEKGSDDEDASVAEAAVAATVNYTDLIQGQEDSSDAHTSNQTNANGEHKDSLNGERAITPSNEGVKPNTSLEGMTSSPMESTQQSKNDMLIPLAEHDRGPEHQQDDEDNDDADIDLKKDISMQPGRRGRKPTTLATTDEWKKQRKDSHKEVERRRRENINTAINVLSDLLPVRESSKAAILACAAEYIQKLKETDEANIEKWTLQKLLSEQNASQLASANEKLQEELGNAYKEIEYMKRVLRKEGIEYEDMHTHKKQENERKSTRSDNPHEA
Setting: whole 60-bp probe, lowest competitor level
| Strand | fluorescence intensity [a.u.] |
| --- | --- |
| CTTCTGTAAATTTGATAGGTGGGTGGACGCGCCCCGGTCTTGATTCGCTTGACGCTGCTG | 92 |
| CGGGGTTAAGTTTGTGAAGTGGGTGGCTTGCAGCAGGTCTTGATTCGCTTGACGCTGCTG | 80.1 |
| GAAGTAAGTTTTCCGCACGTAAAACTACTACAACAAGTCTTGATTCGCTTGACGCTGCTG | 78.3 |
| ATCTGTGGGGGCACCAGCGTGACGGGGACGGTTCTAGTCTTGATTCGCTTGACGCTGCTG | 118 |
| TCCAAAATTGACTCGCATGTGGTGTTGTCATTTTCTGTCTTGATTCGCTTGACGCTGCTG | 108 |

Other studies, line by line
| Molecule | target | assay | system | setting | how to read | endpoint | value |
| --- | --- | --- | --- | --- | --- | --- | --- |
| PhoQ, residues 284 288 289 292 302 303 TASMAF | PhoP, residues 12 14 15 18 19 VQALL (Escherichia coli, UniProt P23836) | Sort-seq, refers to: YFP reporter | E. coli | PhoQ-PhoP variant library, added: 10 µM Mg2+ | relative to: high Mg2+ state, higher = stronger signaling | fold induction | 15.3 |

For quick reference, copied from above (block 2):
| Strand | fitted relative affinity [z-score] |
| --- | --- |
| AGACACCCCTTTGGTGCCACGTGCTAG | 0.684 |
